# Measurements of several laboratories.
# A part holds a random share of what one study measured. Changes are numbered by the printed parent chain.

# Study 1
# Target: Sal-like protein 4, full length isoform B (SALL4, Homo sapiens, UniProt Q9UJQ4-2, residues 1-616)
# Method: universal PBM
# Form: double-stranded DNA, one strand shown
# Matrix: in vitro
# Tested at: not given
# Setting: 8-mer, flanks averaged, mean of replicates
# Reading: higher = stronger binding
Sequence,E-score
GGGTAAAA,0.0738
ATCCATCC,0.0986
ACATCAAT,0.269
ACACTTTA,0.183
GTTCGTTA,0.122
AAGGTTTC,0.0117
ATTTGAAA,0.251
CATAAGAG,0.169
CGATCACG,-0.0581
ACTTGAAC,0.0878
AGACACCT,-0.0685

# Study 2
# Target: Interferon regulatory factor 5, full length, phosphomimetic (IRF5, Homo sapiens, UniProt Q13568-2, residues 1-514, K96S/S451D/S453D/S456D/S462D)
# Method: protein-binding microarray
# Form: double-stranded DNA, one strand shown
# Matrix: in vitro
# Tested at: 250 nM
# Setting: 60-bp whole probe
# With: salmon DNA 0.4 mg/ml
# Baseline: random background probes
# Reading: higher = stronger binding
# All sequences stand within: GCCTAGCAC … GTGCTAGGTCTTGATTCGCTTGACGCTGCTG
Sequence,log fluorescence
GACGACTTCAGTATCGAGAC,2.12 z-score
TTATGTTTCGGTCTCGGTTA,10.5 z-score
TTAGGTCTCCTTTTTCTTTA,0.482 z-score
GAAGATCTCAGTTTCGAGAC,5.34 z-score
GACGATTTCAGACTGGGGAC,0.242 z-score
GACGGTTTCGATATCGGGAC,8.91 z-score
AGTTTTTACTTTCTGAATGC,4.34 z-score
AACTAAAGAGACCACAAAAA,0.353 z-score
ATAGATCTCAGTATCGATTA,6.72 z-score

# Study 3
# Target: CCNE1, cyclin fold, Cln2 fusion (human)
# Method: yeast growth competition, sequencing
# Matrix: yeast
# Setting: weak parent motif
# Baseline: not given
# Reading: higher = stronger binding
# Starting sequence: ORC1 docking peptide (human); PRARKRLELGNLG
Variant,normalised enrichment score
PRARKRLEAGNLG [L9A],0.684
PRARKCLELGNLG [R6C],0.179
ARARKRLELGNLG [P1A],0.538
PRARCRLELGNLG [K5C],0.3
PRARKRLEEGNLG [L9E],0.0656
KRARKRLELGNLG [P1K],1.1
PRAVKRLELGNLG [R4V],0.141
PRARFRLELGNLG [K5F],1.06
PRARKRLKLGNLG [E8K],0.0662
PRARKRLELGNLN [G13N],0.397
PRARKWLELGNLG [R6W],0.172
PRARKRLELHNLG [G10H],-0.0497

# Mixed results
Substance,target,test,test system,conditions,how to read,measurement,value
"PhoQ, residues 284 288 289 292 302 303 GANMMA","PhoP, residues 12 14 15 18 19 GHCSL (Escherichia coli, UniProt P23836)","Sort-seq, refers to: YFP reporter",E. coli,"PhoQ-PhoP variant library, with: 10 µM Mg2+","baseline: high Mg2+ state, higher = stronger signaling",fold induction,5.36

# Some of these lines once more (study 2):
Sequence,log fluorescence
TTATGTTTCGGTCTCGGTTA,10.5 z-score
GACGATTTCAGACTGGGGAC,0.242 z-score
AACTAAAGAGACCACAAAAA,0.353 z-score
TTAGGTCTCCTTTTTCTTTA,0.482 z-score
AGTTTTTACTTTCTGAATGC,4.34 z-score
GAAGATCTCAGTTTCGAGAC,5.34 z-score
